Results of several laboratories.
Each numbered part is a random draw from the data of one study; scales do not carry over between parts. Values joined by “and” are separate records of one study, mostly repeats; a detail may differ.
Sequence of UniProt Q6P2M8 (whole entry, looked up): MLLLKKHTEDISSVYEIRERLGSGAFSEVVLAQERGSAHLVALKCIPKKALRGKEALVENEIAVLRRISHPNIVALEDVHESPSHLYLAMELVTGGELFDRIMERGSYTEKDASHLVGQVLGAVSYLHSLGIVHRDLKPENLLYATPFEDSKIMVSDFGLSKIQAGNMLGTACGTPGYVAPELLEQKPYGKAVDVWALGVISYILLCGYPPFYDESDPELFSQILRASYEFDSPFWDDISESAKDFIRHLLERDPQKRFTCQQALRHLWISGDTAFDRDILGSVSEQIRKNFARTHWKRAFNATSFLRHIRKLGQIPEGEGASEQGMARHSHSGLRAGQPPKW
Sequence of UniProt O75914 (whole entry, looked up): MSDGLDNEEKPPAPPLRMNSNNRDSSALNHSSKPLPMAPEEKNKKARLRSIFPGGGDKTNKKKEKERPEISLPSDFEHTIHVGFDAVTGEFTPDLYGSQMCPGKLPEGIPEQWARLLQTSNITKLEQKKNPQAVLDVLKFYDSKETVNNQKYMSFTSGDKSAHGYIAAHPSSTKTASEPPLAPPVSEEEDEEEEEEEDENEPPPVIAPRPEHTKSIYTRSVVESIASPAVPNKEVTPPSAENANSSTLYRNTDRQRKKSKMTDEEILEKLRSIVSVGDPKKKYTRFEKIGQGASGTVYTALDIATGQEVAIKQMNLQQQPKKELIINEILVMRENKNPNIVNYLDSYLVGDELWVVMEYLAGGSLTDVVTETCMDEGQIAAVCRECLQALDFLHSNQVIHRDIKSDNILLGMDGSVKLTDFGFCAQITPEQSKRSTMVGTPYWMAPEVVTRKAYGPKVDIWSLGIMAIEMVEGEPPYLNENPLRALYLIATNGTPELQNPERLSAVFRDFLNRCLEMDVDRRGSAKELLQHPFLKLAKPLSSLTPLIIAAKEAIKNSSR
Sequence of UniProt P49761 (whole entry, looked up): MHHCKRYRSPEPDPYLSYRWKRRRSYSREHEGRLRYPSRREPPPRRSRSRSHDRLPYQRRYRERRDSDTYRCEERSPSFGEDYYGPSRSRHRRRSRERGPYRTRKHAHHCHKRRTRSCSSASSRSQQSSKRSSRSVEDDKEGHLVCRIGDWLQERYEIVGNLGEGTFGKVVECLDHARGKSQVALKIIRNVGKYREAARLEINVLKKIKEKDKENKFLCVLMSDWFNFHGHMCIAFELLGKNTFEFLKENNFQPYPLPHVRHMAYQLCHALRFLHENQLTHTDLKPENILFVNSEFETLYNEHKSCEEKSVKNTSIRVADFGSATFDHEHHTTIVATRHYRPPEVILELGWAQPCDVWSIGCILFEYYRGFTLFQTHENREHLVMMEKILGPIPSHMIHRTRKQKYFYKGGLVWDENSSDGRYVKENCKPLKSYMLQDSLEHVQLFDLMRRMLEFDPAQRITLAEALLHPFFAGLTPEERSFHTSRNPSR
Sequence of UniProt Q86UE8 (whole entry, looked up): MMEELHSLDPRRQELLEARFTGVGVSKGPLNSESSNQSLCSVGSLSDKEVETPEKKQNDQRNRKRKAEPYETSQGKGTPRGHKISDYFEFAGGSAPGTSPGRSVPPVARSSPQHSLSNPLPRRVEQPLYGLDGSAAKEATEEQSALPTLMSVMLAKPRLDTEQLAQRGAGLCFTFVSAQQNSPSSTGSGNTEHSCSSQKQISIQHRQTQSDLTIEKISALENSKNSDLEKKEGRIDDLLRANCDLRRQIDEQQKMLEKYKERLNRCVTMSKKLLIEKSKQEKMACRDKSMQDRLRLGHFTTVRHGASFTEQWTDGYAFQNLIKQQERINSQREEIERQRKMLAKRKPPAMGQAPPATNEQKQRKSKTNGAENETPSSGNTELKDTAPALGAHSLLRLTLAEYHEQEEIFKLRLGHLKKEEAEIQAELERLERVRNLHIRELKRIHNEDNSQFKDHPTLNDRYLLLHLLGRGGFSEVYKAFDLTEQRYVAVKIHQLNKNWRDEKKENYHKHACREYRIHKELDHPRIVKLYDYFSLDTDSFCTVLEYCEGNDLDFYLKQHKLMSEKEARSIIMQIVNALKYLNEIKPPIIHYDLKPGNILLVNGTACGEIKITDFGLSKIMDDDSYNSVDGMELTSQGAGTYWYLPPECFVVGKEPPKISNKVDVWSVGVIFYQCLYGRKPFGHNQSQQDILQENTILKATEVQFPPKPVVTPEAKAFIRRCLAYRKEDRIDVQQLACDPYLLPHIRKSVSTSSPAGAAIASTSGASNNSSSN
Sequence of UniProt Q9HAZ1 (whole entry, looked up): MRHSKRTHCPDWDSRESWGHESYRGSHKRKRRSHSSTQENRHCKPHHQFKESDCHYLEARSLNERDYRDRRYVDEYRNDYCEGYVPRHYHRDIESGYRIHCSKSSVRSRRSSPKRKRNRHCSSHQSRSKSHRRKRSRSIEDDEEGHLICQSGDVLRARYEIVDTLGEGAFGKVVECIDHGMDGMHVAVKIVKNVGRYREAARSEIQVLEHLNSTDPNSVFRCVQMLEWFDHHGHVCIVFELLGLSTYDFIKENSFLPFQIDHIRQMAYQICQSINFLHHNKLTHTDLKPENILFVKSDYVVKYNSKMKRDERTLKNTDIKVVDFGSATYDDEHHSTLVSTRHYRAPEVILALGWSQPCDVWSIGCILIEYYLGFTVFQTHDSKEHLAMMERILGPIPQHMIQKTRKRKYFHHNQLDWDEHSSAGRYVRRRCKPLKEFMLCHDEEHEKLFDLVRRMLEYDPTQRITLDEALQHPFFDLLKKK
Sequence of UniProt Q8NI60 (whole entry, looked up): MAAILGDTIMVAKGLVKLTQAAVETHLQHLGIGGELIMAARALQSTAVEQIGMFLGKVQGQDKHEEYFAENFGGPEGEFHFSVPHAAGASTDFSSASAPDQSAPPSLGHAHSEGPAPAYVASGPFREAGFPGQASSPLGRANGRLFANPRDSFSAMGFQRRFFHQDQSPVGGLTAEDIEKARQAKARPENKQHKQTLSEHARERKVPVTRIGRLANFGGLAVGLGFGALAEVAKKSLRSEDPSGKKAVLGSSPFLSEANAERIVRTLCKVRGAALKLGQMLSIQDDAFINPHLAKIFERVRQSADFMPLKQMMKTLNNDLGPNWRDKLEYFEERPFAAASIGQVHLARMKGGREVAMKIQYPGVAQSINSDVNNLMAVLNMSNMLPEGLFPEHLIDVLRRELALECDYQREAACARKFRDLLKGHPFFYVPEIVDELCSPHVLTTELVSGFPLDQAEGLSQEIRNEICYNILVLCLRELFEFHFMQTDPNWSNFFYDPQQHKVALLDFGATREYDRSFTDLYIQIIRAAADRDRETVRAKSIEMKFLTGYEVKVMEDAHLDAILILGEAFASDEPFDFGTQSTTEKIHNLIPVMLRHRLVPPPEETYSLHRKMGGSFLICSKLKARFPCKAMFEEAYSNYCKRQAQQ
Sequence of UniProt P51956 (whole entry, looked up): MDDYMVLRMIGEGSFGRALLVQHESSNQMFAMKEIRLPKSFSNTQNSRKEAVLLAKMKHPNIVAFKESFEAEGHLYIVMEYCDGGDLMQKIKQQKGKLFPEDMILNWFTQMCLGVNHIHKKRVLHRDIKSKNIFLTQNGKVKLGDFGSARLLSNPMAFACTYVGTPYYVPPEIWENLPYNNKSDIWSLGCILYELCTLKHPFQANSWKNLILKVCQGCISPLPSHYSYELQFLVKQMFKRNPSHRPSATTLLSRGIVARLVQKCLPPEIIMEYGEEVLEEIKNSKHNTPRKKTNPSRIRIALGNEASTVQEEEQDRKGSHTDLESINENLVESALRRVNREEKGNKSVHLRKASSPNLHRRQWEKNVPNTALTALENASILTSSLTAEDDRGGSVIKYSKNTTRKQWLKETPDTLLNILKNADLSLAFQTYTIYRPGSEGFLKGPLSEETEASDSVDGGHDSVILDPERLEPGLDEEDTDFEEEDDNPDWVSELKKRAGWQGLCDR
Sequence of UniProt Q96L34 (whole entry, looked up): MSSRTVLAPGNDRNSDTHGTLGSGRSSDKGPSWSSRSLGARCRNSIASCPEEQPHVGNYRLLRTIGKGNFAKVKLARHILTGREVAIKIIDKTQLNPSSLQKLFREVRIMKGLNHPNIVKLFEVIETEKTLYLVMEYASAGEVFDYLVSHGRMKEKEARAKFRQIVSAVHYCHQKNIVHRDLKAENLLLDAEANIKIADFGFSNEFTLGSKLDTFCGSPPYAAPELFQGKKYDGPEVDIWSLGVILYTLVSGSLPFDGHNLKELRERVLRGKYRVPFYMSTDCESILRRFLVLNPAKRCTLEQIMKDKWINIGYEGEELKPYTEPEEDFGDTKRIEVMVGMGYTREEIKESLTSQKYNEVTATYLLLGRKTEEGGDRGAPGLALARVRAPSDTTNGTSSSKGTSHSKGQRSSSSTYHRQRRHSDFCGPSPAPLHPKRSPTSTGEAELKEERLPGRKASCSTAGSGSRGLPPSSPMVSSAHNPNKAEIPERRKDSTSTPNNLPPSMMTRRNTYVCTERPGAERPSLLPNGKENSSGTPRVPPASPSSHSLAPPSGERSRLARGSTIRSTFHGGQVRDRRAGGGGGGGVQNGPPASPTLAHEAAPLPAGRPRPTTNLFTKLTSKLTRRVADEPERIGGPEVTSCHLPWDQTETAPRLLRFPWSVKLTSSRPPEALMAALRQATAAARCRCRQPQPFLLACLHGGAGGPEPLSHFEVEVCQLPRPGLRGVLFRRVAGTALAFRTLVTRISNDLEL

Study 1 — SMILES: Nc1ncnc2c1cnn2-c1ccccc1; observed: enzyme activity; action: inhibitor; tested at: 0.5 µM; relative to: control
target	remaining activity [%]
PNCK (Homo sapiens, UniProt Q6P2M8)	97.5
DCLK2 (Homo sapiens, UniProt Q8N568)	101
CLK3 (Homo sapiens, UniProt P49761)	96.1
PAK3 (Homo sapiens, UniProt O75914)	98.8
RPS6KA4 (Homo sapiens, UniProt O75676)	106
ROCK1 (Homo sapiens, UniProt Q13464)	93.8
CLK4 (Homo sapiens, UniProt Q9HAZ1)	76.7
KDR (Homo sapiens, UniProt P35968)	98.8
MARK4 (Homo sapiens, UniProt Q96L34)	89.7
NEK3 (Homo sapiens, UniProt P51956)	93.5
DDR2 (Homo sapiens, UniProt Q16832)	92.3
TLK2 (Homo sapiens, UniProt Q86UE8)	110
MET (Homo sapiens, UniProt P08581)	97.1
Myosin-IIIb (MYO3B, Homo sapiens, UniProt Q8WXR4)	93.4

Study 2 — organism: Sarcocystis neurona; observed: parasite growth; tested at: 10 µM; time: 96 h; notes: first screen; relative to: untreated
Compound	log2 fold change
CC(N)C12CC3CC(CC(C3)C1)C2 (stereo not drawn)	0.3
Oc1ncnc2[nH]ncc12	0.14
Nc1nnc(-c2cccc(Cl)c2Cl)c(N)n1	0.19
N#Cc1ccc(C(c2ccc(C#N)cc2)n2cncn2)cc1	0.21
CN1CCC(=C2c3ccccc3C=Cc3ccccc32)CC1	-0.33
Cc1cc2c(s1)Nc1ccccc1N=C2N1CCN(C)CC1	-0.13
CC(C)(C)C(O)/C=C/c1ccc2c(c1)OCO2 (stereo not drawn)	0.36

Study 3 — cell line: mouse MPNST tumor cells; method: high-content nuclear imaging; measured: cell number; tested at: 10 µM; time: 12 h; notes: mean of 2 replicates; relative to: plate mean; reading: higher = more cells
Structure (SMILES)	nuclei count
CC(C)COCC(CN(Cc1ccccc1)c1ccccc1)N1CCCC1 (stereo not drawn)	-0.558 z-score
O=C(NC(=O)c1c(F)cccc1Cl)NC1c2ccccc2-c2ccccc21	0.627 z-score
O=Nc1c(O)[nH]c2c(Cl)c(Cl)ccc12	0.901 z-score
COc1cc(C(=O)NCc2ccc(OCCN(C)C)cc2)cc(OC)c1OC	1.11 z-score and 0.698 z-score
Cc1c(C(=O)NN2CCS(=O)(=O)CC2)nn(-c2ccc(Cl)cc2Cl)c1-c1ccc(C#CCCC#N)cc1	-0.802 z-score
CN(C)CCN(Cc1ccc(-c2ccc(CNCCc3ccccc3)cc2)cc1)C(=O)CCC1CCCC1	-6.36 z-score

Study 4 — tested at: 1 µM
SMILES: NS(=O)(=O)c1cc(NC(=O)Cc2ccccc2)ccc1Oc1cccc(Cl)c1
target	assay	remaining binding [%]
PIK3CA (Homo sapiens, UniProt P42336, M1043I)	cell-free assay, competition with immobilised ligand	93
CDC42BPG (Homo sapiens, UniProt Q6DT37)	competition binding	100
COQ8A (Homo sapiens, UniProt Q8NI60)	cell-free assay, competition with immobilised ligand	94
CAMK2G (Homo sapiens, UniProt Q13555)	cell-free assay, competition with immobilised ligand	86
PLK4 (Homo sapiens, UniProt O00444)	cell-free assay, competition with immobilised ligand	92

Further values, each from its own experiment
SMILES	assay	system	conditions	measurement	result
COc1ccc(-c2c(Nc3ccccn3)[nH]c3c(C4=CCCCC4)c(-c4ccccc4)nn3c2=O)cc1	LC-MS/MS	human, plasma	50 mg once daily	AUC(0-inf) observed, dose-normalised	2090 ng·h/mL/mg

Excerpt of the above (study 3):
Structure (SMILES)	nuclei count
O=Nc1c(O)[nH]c2c(Cl)c(Cl)ccc12	0.901 z-score
COc1cc(C(=O)NCc2ccc(OCCN(C)C)cc2)cc(OC)c1OC	1.11 z-score and 0.698 z-score
Cc1c(C(=O)NN2CCS(=O)(=O)CC2)nn(-c2ccc(Cl)cc2Cl)c1-c1ccc(C#CCCC#N)cc1	-0.802 z-score
CN(C)CCN(Cc1ccc(-c2ccc(CNCCc3ccccc3)cc2)cc1)C(=O)CCC1CCCC1	-6.36 z-score
